# Published values pooled from the literature.
# Each line is one published result; not all experiments were run side by side. Numbers after ± are the reported error.
Molecule,organism,test,system,setting,MIC
Cc1ccccc1OCc1n(CC(=O)OC2CC(C)CCC2C(C)C)c2ccccc2[n+]1C (centres unmarked),Mycolicibacterium smegmatis,microbial growth,,,5 µM
O=CC(/N=N/c1ccc(Cl)cc1)=C(\O)c1cc2ccccc2o1,Bacillus cereus,"microbial growth, broth dilution",UW85,18 h,256 µg/mL
O=C(N/N=C/c1ccccc1)c1cc([N+](=O)[O-])cc([N+](=O)[O-])c1,"Staphylococcus aureus, Bacillus subtilis, Escherichia coli",bacterial growth,,24 h,39.8 µM
LSTFFRLFNRSFTQGRRRRSVQWCA,Streptococcus mutans,broth microdilution,"peptide, UA159","planktonic, anaerobic",10.7 ± 4 µg/mL
COc1cc(OC)cc(C(=O)N/N=C/c2ccccc2)c1,Aspergillus niger,tube dilution,,"7 days, 25 °C",< 25.1 µM
CN[C@H](CC(C)C)C(=O)N[C@H]1C(=O)N[C@@H](CC(N)=O)C(=O)N[C@H]2C(=O)N[C@H]3C(=O)N[C@H](C(=O)N[C@H](C(=O)O)c4cc(O)cc(O)c4-c4cc3ccc4O)[C@H](O)c3ccc(c(Cl)c3)Oc3cc2cc(c3O[C@@H]2O[C@H](CO)[C@@H](O)[C@H](O)[C@H]2O[C@H]2C[C@](C)(N)[C@H](O)[C@H](C)O2)Oc2ccc(cc2Cl)[C@H]1O,Enterococcus faecium,,vancomycin-sensitive ATCC BAA-2127,20 h,1 µg/mL
zinc borate,Serratia marcescens,broth macrodilution,clinical isolate,"9%, added: boric acid",4.5%
Cc1ccc(C(=O)N/N=C/c2ccccc2Cl)cc1,"Staphylococcus aureus, Bacillus subtilis, Escherichia coli",bacterial growth,,24 h,45.7 µM
C[C@H](N)C(=O)N[C@@H](CS)C(=O)N1CCC[C@H]1C(=O)N[C@@H](Cc1c[nH]cn1)C(=O)N[C@@H](CCCNC(=N)N)C(=O)N[C@@H](CS)C(=O)O,Streptococcus pyogenes,broth microdilution,MTCC 442,37 °C,80 µg/mL
Cc1cccc(C(=O)N/N=C/c2ccccc2)c1,Aspergillus niger,"microbial growth, broth dilution",,7 days,26.3 µM
CC[C@H](C)[C@H](NC(=O)[C@@H]1CCCN1C(=O)[C@H](CCCNC(=N)N)NC(=O)[C@@H]1CCCN1C(=O)[C@@H]1CCCN1C(=O)[C@@H](NC(=O)[C@@H]1CCCN1C(=O)[C@H](CCCNC(=N)N)NC(=O)[C@@H]1CCCN1C(=O)[C@H](CC(C)C)NC(=O)[C@H](Cc1ccc(O)cc1)NC(=O)[C@H](CO)NC(=O)CNC(=O)[C@H](CCCCN)NC(=O)[C@H](CC(=O)O)NC(=O)[C@@H](N)C(C)C)[C@@H](C)O)C(=O)N[C@@H](Cc1ccc(O)cc1)C(=O)N[C@@H](CC(N)=O)C(=O)N[C@@H](CCCNC(=N)N)C(=O)N[C@@H](CC(N)=O)C(=O)O,Salmonella enterica,,serovar Newport,"18 h, 37 °C, 12.5% Mueller-Hinton broth",> 0.416 µM
CC(C)C[C@H](NC(=O)[C@H](CCCNC(=N)N)NC(=O)[C@H](CC(C)C)NC(=O)[C@@H](NC(=O)[C@H](CC(C)C)NC(=O)[C@H](Cc1c[nH]cn1)NC(=O)[C@H](CC(C)C)NC(=O)[C@@H](NC(=O)[C@H](C)N)[C@@H](C)O)C(C)C)C(=O)N[C@@H](CCCNC(=N)N)C(=O)NCC(=O)NCC(=O)O,Mycolicibacterium smegmatis,,mc2 155,"37 °C, ≥90% viability decrease",25 µM
CC[C@H](C)[C@H](NC(=O)[C@@H]1CCCN1C(=O)[C@H](CCCCN)NC(=O)[C@@H]1CCCN1C(=O)[C@@H]1CCCN1C(=O)[C@@H](NC(=O)[C@@H]1CCCN1C(=O)[C@H](CCCNC(=N)N)NC(=O)[C@@H]1CCCN1C(=O)[C@H](CCCNC(=N)N)NC(=O)[C@H](Cc1ccc(O)cc1)NC(=O)[C@H](CO)NC(=O)CNC(=O)[C@H](CCCCN)NC(=O)[C@H](CC(=O)O)NC(=O)[C@@H](N)C(C)C)[C@@H](C)O)C(=O)N[C@@H](Cc1ccc(O)cc1)C(=O)N[C@@H](CC(N)=O)C(=O)N[C@@H](CCCNC(=N)N)C(=O)N[C@@H](CC(N)=O)C(=O)O,Salmonella enterica,,serovar Infantis #129 B,"18 h, 37 °C, 12.5% Mueller-Hinton broth",0.098 ± 0.045 µM
CC(C)[C@H](NC(=O)[C@H](CO)NC(=O)[C@H](CCCNC(=N)N)NC(=O)[C@H](CCCNC(=N)N)NC(=O)[C@H](CCCNC(=N)N)NC(=O)[C@H](CCCNC(=N)N)NC(=O)CN)C(=O)N[C@@H](CCC(N)=O)C(=O)N[C@@H](Cc1c[nH]c2ccccc12)C(=O)N[C@@H](CS)C(=O)N[C@@H](C)C(=O)O,Streptococcus mutans,broth microdilution,GS-5,"24 h, planktonic anaerobic",48 ± 17.5 µg/mL
pneumocandin I,Candida parapsilosis,"broth microdilution, resazurin",ATCC 90018,"24 h, 35 °C",12.8 µg/mL
actinomycin Y3,Mycolicibacterium aurum,broth microdilution,ATCC 23366,16 to 48 h,> 9.33 µg/mL
CCCCCCCCCCCCCCCCCC(=O)N/N=C/c1ccccc1,"Staphylococcus aureus, Bacillus subtilis, Escherichia coli",bacterial growth,,24 h,25.7 µM
CC[C@H](C)[C@H](NC(=O)[C@H](CCCCN)NC(=O)CNC(=O)[C@H](CC(C)C)NC(=O)[C@H](CC(C)C)NC(=O)[C@H](CCCCN)NC(=O)[C@H](Cc1ccccc1)NC(=O)[C@@H](N)CC(C)C)C(=O)N[C@H](C(=O)N[C@@H](Cc1c[nH]cn1)C(=O)N[C@@H](Cc1c[nH]cn1)C(=O)N[C@H](C(=O)NCC(=O)N[C@@H](CC(N)=O)C(=O)N[C@@H](Cc1ccccc1)C(=O)N[C@H](C(=O)N[C@@H](Cc1c[nH]cn1)C(=O)NCC(=O)N[C@@H](Cc1ccccc1)C(=O)N[C@@H](CO)C(=O)N[C@@H](Cc1c[nH]cn1)C(=O)N[C@H](C(=O)N[C@@H](Cc1ccccc1)C(N)=O)C(C)C)C(C)C)C(C)C)[C@@H](C)CC,Enterobacter cloacae,broth microdilution,AR 0136,pH 7.4,> 128 µM
COc1ccc(OCc2n(CC(=O)OC3CC(C)CCC3C(C)C)c3ccccc3[n+]2C)cc1 (centres unmarked),Mycobacteroides abscessus,microbial growth,,,26 µM
NCC[C@H](O)C(=O)N[C@@H]1C[C@H](N)[C@@H](O[C@H]2O[C@H](CN)[C@@H](O)[C@H](O)[C@H]2O)[C@H](O)[C@H]1O[C@H]1O[C@H](CO)[C@@H](O)[C@H](N)[C@H]1O,Mycobacteroides abscessus,,ATCC 19977 ∆whiB7,120 h,0.25 µg/mL
COc1cc(OC)cc(C(=O)N/N=C/c2ccccc2Cl)c1,Aspergillus niger,"microbial growth, broth dilution",,7 days,27.5 µM
Cc1ncc([N+](=O)[O-])n1CCO,Bacteroides fragilis,,nim-positive reference strains,,> 256 µg/mL
CCCCCCCCCCCCCC(=O)N/N=C/c1ccccc1Cl,Aspergillus niger,"microbial growth, broth dilution",,7 days,75.9 µM
RXRRXRRXRRXRXB (peptide-PNA conjugate),Streptococcus pyogenes,broth microdilution,peptide,"0.02% acetic acid, 0.4% BSA",62.5 µM
O=C(/C=C/c1ccccc1)N/N=C/c1ccccc1Cl,"Staphylococcus aureus, Bacillus subtilis, Escherichia coli",bacterial growth,,24 h,43.7 µM
CC(C)C[C@H](NC(=O)[C@H](CCCCN)NC(=O)[C@H](C)NC(=O)[C@H](CC(C)C)NC(=O)[C@H](CCCCN)NC(=O)[C@H](CCCCN)NC(=O)[C@H](C)NC(=O)[C@H](CC(C)C)NC(=O)[C@H](CCCCN)NC(=O)[C@H](C)NC(=O)[C@H](CC(C)C)NC(=O)[C@@H](N)CCCCN)C(=O)N[C@@H](C)C(=O)N[C@@H](CCCCN)C(N)=O,Staphylococcus epidermidis,,ATCC 12228,18 to 20 h,4 µM

# Excerpt of the above:
Molecule,organism,test,system,setting,MIC
CC[C@H](C)[C@H](NC(=O)[C@H](CCCCN)NC(=O)CNC(=O)[C@H](CC(C)C)NC(=O)[C@H](CC(C)C)NC(=O)[C@H](CCCCN)NC(=O)[C@H](Cc1ccccc1)NC(=O)[C@@H](N)CC(C)C)C(=O)N[C@H](C(=O)N[C@@H](Cc1c[nH]cn1)C(=O)N[C@@H](Cc1c[nH]cn1)C(=O)N[C@H](C(=O)NCC(=O)N[C@@H](CC(N)=O)C(=O)N[C@@H](Cc1ccccc1)C(=O)N[C@H](C(=O)N[C@@H](Cc1c[nH]cn1)C(=O)NCC(=O)N[C@@H](Cc1ccccc1)C(=O)N[C@@H](CO)C(=O)N[C@@H](Cc1c[nH]cn1)C(=O)N[C@H](C(=O)N[C@@H](Cc1ccccc1)C(N)=O)C(C)C)C(C)C)C(C)C)[C@@H](C)CC,Enterobacter cloacae,broth microdilution,AR 0136,pH 7.4,> 128 µM
COc1ccc(OCc2n(CC(=O)OC3CC(C)CCC3C(C)C)c3ccccc3[n+]2C)cc1 (centres unmarked),Mycobacteroides abscessus,microbial growth,,,26 µM
